Published values from different studies.
Each numbered part is a random draw from the data of one study; scales do not carry over between parts.

Block 1 — method: protein binding microarray; molecule type: double-stranded DNA, one strand shown; sample: in vitro; tested at: not given; reference: not given; direction: higher = stronger binding
Target: Histone acetyltransferase KAT6A, winged helix 2, GST fusion (KAT6A, Homo sapiens, UniProt Q92794, residues 85-181)
Setting: 8-mer, flanks averaged, mean of 2 arrays, mostly near background
Construct (chain): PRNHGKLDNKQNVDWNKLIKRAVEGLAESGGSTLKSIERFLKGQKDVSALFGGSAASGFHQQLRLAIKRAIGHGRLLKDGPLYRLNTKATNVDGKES
Oligonucleotide	E-score
AACATGTT	-0.0772
ATTGTCTC	-0.091
CGTCGGGA	0.103
CCCAGGGA	-0.0102
GAATTCTA	0.0195
CTGATAGC	0.0858
CAGTCTCC	0.125
TGTTTGAA	0.0679

Block 2 — method: protein-binding microarray; molecule type: double-stranded DNA, one strand shown; sample: in vitro; tested at: 250 nM; setting: 60-bp whole probe; added: salmon DNA 0.4 mg/ml; reference: random background probes; direction: higher = stronger binding; all sequences stand within: GCCTAGCAC … GTCTTGATTCGCTTGACGCTGCTG
Target: Interferon regulatory factor 7, full length, phosphomimetic (IRF7, Homo sapiens, UniProt Q92985, residues 1-503, S101K/S471D/S472D/S475D/S476D/S477D/S483D/S484D/S487D)
Target sequence (chain): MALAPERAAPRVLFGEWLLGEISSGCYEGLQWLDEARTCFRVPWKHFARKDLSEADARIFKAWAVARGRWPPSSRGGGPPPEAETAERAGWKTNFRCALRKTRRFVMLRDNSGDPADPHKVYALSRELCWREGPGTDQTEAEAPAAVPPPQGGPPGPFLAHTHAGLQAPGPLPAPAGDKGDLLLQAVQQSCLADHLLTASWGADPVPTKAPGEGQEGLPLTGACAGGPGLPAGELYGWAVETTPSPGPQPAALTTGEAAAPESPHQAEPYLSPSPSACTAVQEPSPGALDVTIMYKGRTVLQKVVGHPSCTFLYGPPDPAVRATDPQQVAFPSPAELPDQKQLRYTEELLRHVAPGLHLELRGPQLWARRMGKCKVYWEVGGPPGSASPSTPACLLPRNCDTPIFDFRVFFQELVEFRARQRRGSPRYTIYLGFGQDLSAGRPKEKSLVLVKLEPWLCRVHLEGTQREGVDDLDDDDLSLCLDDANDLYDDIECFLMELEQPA
Oligonucleotide	log fluorescence
CTTGCTACACATCTCACTCTGTGCTAG	-0.262 z-score
TCATTTTTCTAATTTACACTGTGCTAG	1.98 z-score
GACGGTTTCGGGATTGGGGACGTGCTA	7.13 z-score
CTAGTTTTACTTTCTATGTCGTGCTAG	2.83 z-score
TGAGGTCTCCTTTTCCTTTAGTGCTAG	1.13 z-score
TCACATACGAGTTTCCAACTGTGCTAG	0.877 z-score

Block 3 — method: RNA Bind-n-Seq; molecule type: RNA; sample: in vitro; tested at: 1 µM; setting: whole 134-nt RNA, ends assumed; added: 150 mM KCl; reference: input library; direction: higher = stronger binding
Target: Ras GTPase-activating protein-binding protein 1, C-terminal RGG region (G3BP1, Homo sapiens, UniProt Q13283)
UniProt Q13283, sequence (whole entry, looked up): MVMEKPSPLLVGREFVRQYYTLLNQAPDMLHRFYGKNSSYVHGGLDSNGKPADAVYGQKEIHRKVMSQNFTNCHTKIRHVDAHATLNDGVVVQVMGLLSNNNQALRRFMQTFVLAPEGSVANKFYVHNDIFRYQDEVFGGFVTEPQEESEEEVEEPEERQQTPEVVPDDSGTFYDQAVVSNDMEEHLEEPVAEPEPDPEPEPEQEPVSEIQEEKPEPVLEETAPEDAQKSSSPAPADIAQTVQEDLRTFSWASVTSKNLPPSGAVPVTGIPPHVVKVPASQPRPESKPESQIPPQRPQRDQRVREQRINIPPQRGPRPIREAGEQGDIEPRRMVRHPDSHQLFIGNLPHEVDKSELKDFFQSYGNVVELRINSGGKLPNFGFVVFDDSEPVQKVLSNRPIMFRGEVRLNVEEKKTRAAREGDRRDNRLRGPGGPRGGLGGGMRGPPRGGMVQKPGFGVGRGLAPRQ
Oligonucleotide	log2 enrichment
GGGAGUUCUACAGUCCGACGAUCUUCCCCUGGAGGGCGCCUCCAUCCUUGGAGGCCUAGUGCCGUCGGAGAGAGAGCGGGAGCCGCGGACAGAGACGCGUGCGCAAUUCGGAGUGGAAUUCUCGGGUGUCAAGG	-2.86
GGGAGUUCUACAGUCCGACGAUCUGGCCCUGGUGGCAUGCGGGUAGGAAGAGGUGGCCUCAUGGAUCGUGGUGGUCCCGGUGGAAUGUUCAGAGGUGGCCGUGGUGGAGACAGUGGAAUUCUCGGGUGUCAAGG	2.29
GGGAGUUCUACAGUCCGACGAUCCCUGUGCUACACAUCGUAUGUACCGAAUCGGUUUUUUUGGGUUUUUUUGGGUUUUUUUGGGAAAGUAUUAUGUUACGCCGUUCGGAUCUGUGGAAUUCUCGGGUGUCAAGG	-1.56
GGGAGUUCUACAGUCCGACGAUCUUUCUUCCCCCACAGUUCAUCCAUGAGCUCGGAUUUCCCACAUUACAACUUCAGGAUGCCUAAUAUUGGAUUCCAGAAUCUGCCUCUCAAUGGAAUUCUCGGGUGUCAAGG	0.443
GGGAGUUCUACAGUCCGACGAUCCAAGUCCUGUGCUACACAUCGUAUGUACCGAAUCGGCCCGGCCCGGGGCCCGGGGAAAGUAUUAUGUUACGCCGUUCGGAUCUGCACUUCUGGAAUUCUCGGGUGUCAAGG	-1.63
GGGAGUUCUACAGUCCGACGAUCCAAGUCCUGUGCUACACAUCGUAUGUACCGAAUCGGGGAGGGGAGGGGAAAGGGGAAAGUAUUAUGUUACGCCGUUCGGAUCUGCACUUCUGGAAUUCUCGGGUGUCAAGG	3.03
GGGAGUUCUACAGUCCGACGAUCUUGUGAUUAAGAUUUGUUCUUUUUCUCCCCUCUCUAUAGGAAGAUGAUCCCUAUGAUCUUGAAGAUGUUUCUGCACAGAAAUGAGGGAAAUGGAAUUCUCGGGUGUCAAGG	-0.0469
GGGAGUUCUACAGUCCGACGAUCCAAGUCCUGUGCUACACAUCGUAUGUACCGAAUCGGGGAAAGGGGAAAGGGAAAGGAAAGUAUUAUGUUACGCCGUUCGGAUCUGCACUUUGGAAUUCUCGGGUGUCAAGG	-1.07
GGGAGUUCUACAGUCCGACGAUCUGGGAGGUGGAUUUUGUUUAUUUUUUUAGCUCAUUUCCAGGGGUGGGAAUUUUUUUUUAAUAUGUGUCAUGAAUAAAGUUGUUUUUGAUAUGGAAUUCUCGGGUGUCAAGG	2.28

Single results of other studies
Substance	target	assay	test system	conditions	scale	measurement	result
PhoQ, residues 284 288 289 292 302 303 AGGCYF	PhoP, residues 12 14 15 18 19 LYFRQ (Escherichia coli, UniProt P23836)	Sort-seq, refers to: YFP reporter	E. coli	PhoQ-PhoP variant library, added: 10 µM Mg2+	reference: high Mg2+ state, higher = stronger signaling	fold induction	17.3

For quick reference, copied from above (block 3):
Oligonucleotide	log2 enrichment
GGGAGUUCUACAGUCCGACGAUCCCUGUGCUACACAUCGUAUGUACCGAAUCGGUUUUUUUGGGUUUUUUUGGGUUUUUUUGGGAAAGUAUUAUGUUACGCCGUUCGGAUCUGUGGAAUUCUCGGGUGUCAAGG	-1.56
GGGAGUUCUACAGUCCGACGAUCUUUCUUCCCCCACAGUUCAUCCAUGAGCUCGGAUUUCCCACAUUACAACUUCAGGAUGCCUAAUAUUGGAUUCCAGAAUCUGCCUCUCAAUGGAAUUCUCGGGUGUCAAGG	0.443
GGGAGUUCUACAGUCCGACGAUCCAAGUCCUGUGCUACACAUCGUAUGUACCGAAUCGGCCCGGCCCGGGGCCCGGGGAAAGUAUUAUGUUACGCCGUUCGGAUCUGCACUUCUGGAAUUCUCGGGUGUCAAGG	-1.63
